# Published values from different studies.
# Parts stem from different laboratories: compare values within a part only.

# Series 1
# Target: Fragile X messenger ribonucleoprotein 1, C-terminal low-complexity region (Fmr1, Mus musculus, UniProt P35922)
# Technique: RNA Bind-n-Seq
# Molecule type: RNA
# Sample: in vitro
# Concentration: 200 nM
# Notes: whole 134-nt RNA, ends assumed
# With: 150 mM KCl
# Reference: input library
# Reading: higher = stronger binding
Strand,log2 enrichment
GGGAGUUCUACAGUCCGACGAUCUCCUGUGCUACACAUCGUAUGUACCGAAUCGGGGUUUUUGGGGUUUUUUUGGGGUGGGGAAAGUAUUAUGUUACGCCGUUCGGAUCUGCAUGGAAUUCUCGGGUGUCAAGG,0.967
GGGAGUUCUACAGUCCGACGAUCGGAAGGGGGCUUGCGCCACGGCAGUGAAUCUUCAUGGAUCUUCAUGCAGCCAUACAAACCCUGGUUCCAACAGAAUGGUGAAUUUUCGACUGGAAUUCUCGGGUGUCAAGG,-1.25
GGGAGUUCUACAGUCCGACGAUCAGUCCUGUGCUACACAUCGUAUGUACCGAAUCGGGAAAAAGGAAAAAGGAAAAAGGGGAAAGUAUUAUGUUACGCCGUUCGGAUCUGCACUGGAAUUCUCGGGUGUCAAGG,-0.302
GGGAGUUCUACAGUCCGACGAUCUCAAGUCCUGUGCUACACAUCGUAUGUACCGAAUCGGGGUUGGGGUUGGGGUUGGAAAGUAUUAUGUUACGCCGUUCGGAUCUGCACUUCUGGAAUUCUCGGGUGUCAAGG,0.231
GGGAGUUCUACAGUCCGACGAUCAGUCCUGUGCUACACAUCGUAUGUACCGAAUCGGGGAGGGGUUUUUUUGGGGAGGGGAAAGUAUUAUGUUACGCCGUUCGGAUCUGCACUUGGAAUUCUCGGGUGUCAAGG,1.08
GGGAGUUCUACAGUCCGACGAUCCACAGACAACACGCACCCACACAGACAGAGAGGGAAGGGGUUGGGAUGGGGACAGGGUGCACAGCAGGGCGGGGUAGGACCCCAGCCCCUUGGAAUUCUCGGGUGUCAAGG,1.21
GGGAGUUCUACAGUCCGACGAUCUGGCCCUGGUGGCAUGCGGGGAGGAAGAGGUGGCCUCAUGGAUCGUGGUGGUCCCGGUGGAAUGUUCAUAGGUGGCCGUGGUGGAGACAGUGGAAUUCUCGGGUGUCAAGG,0.0425

# Series 2
# Target: Interferon regulatory factor 5, full length, phosphomimetic (IRF5, Homo sapiens, UniProt Q13568-2, residues 1-514, S451D/S453D/S456D/S462D)
# Technique: protein-binding microarray
# Molecule type: double-stranded DNA, one strand shown
# Sample: in vitro
# Concentration: 940 nM top
# Notes: 60-bp whole probe
# With: salmon DNA 0.4 mg/ml
# Reference: random background probes
# Reading: higher = stronger binding
Strand,fitted relative affinity [z-score]
GCCTAGCACATATACCTGTATATCTTCAGGTGCTAGGTCTTGATTCGCTTGACGCTGCTG,0.245
GCCTAGCACTCATTTTTTTTTTTTTAACTGTGCTAGGTCTTGATTCGCTTGACGCTGCTG,1.45
GCCTAGCACGGCCATTTCCCTTGCCGCGCGTGCTAGGTCTTGATTCGCTTGACGCTGCTG,0.602
GCCTAGCACAACGGACTGCTTTTCCTGACGTGCTAGGTCTTGATTCGCTTGACGCTGCTG,-0.143

# Series 3
# Target: Prothrombin, mature alpha-thrombin (F2, Homo sapiens, UniProt P00734)
# Technique: aptamer microarray, sandwich
# Molecule type: DNA with 2'F-ANA
# Sample: in vitro
# Concentration: 200 nM
# Notes: whole 15-mer aptamer, many near background
# With: Cy3 exosite-II aptamer, 400 nM
# Reading: higher = stronger binding
# Strand: GGTTGGTGTGGTTGG
Modification,mean fluorescence intensity [a.u.]
2'F-ANA at 1 5 7 8 10 11 12,51.9
2'F-ANA at 1 2 4 6 9 10 13 14,47.9
2'F-ANA at 1 5 8 10 11 12 13,47.5
2'F-ANA at 3 4 6 8 10 11 12 14,166
2'F-ANA at 1 3 5 7 9 10 14,44.2
2'F-ANA at 2 3 6 7 9 10 12 13 14,246
2'F-ANA at 1 2 4 7 8 12 13 14,64.4
2'F-ANA at 2 3 5 12 13,183
2'F-ANA at 1 2 3 4 5 6 9 10 11 12 13,50
2'F-ANA at 2 4 5 6 7 8 9 10 12,53.6

# Mixed results
Substance,target,test,test system,conditions,scale,quantity,value
"PhoQ, residues 284 288 289 292 302 303 TVTVVA","PhoP, residues 12 14 15 18 19 NFCKL (Escherichia coli, UniProt P23836)","Sort-seq, item: YFP reporter",E. coli,"PhoQ-PhoP variant library, with: 10 µM Mg2+","reference: high Mg2+ state, higher = stronger signaling",fold induction,17.1

# Some of these lines once more (series 3):
Modification,mean fluorescence intensity [a.u.]
2'F-ANA at 1 2 4 6 9 10 13 14,47.9
2'F-ANA at 1 5 8 10 11 12 13,47.5
2'F-ANA at 3 4 6 8 10 11 12 14,166
